Published values from different studies.
Parts stem from different laboratories: compare values within a part only. Substitutions count along the parent as printed.

Block 1
Target: Histone acetyltransferase KAT6A, both winged helices, GST fusion (KAT6A, Homo sapiens, UniProt Q92794, residues 1-181)
Method: protein binding microarray
Molecule type: double-stranded DNA, one strand shown
Medium: in vitro
Tested at: not given
Setting: 8-mer, flanks averaged, mean of 2 arrays, mostly near background
Baseline: not given
Reading: higher = stronger binding
Construct (chain): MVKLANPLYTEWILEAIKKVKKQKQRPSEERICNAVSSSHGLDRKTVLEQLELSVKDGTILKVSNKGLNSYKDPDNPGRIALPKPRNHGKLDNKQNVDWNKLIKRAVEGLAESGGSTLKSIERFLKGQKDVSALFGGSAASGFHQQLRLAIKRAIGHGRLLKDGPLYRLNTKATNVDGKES
| Sequence | E-score |
| --- | --- |
| AGCTGAGA | -0.155 |
| AGATGGTG | -0.217 |
| ACCAACAG | -0.0388 |
| GATGTACC | -0.0821 |
| AACGAATG | -0.0977 |
| CACACACA | -0.241 |
| GGCCGGGA | 0.236 |
| AATGTAAG | -0.0589 |

Block 2
Target: CCNA2, cyclin fold, Cln2 fusion (human)
Method: yeast growth competition, sequencing
Medium: yeast
Setting: weak parent motif
Baseline: not given
Reading: higher = stronger binding
Parent: SLBP docking peptide (human); ARYKRKLLINDFG
| Variant | normalised enrichment score |
| --- | --- |
| ARYKAKLLINDFG [R5A] | 1.04 |
| ARYKRKRLINDFG [L7R] | 1.15 |
| ARYKDKLLINDFG [R5D] | 0.159 |
| PRYKRKLLINDFG [A1P] | 1.23 |
| AHYKRKLLINDFG [R2H] | 1.34 |
| ALYKRKLLINDFG [R2L] | 1.3 |
| ARYKTKLLINDFG [R5T] | 0.527 |
| ARYKRKLLPNDFG [I9P] | 1.64 |

Block 3
Target: Sox, HMG box (Pigoraptor chileana)
Method: Spec-seq
Molecule type: double-stranded DNA, one strand shown
Medium: in vitro
Tested at: not given
Setting: whole probe, mean of replicates
Baseline: not given
Reading: lower = stronger binding
Shared flanks, not repeated: GAGTCGTCTCGTCAGCAC … CCGTAGAGCACTCAGGTC
Residues (chain): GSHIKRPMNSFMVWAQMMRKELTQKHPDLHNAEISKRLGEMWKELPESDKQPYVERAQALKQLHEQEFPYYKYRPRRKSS
| Sequence | relative binding energy [ln ratio] |
| --- | --- |
| TTGTGTT | -2.07 |
| TAGTGTT | -0.754 |
| CATCCCA | 0.76 |
| CATTGTT | -3.09 |
| GCGGGTT | 1.48 |
| CATTGAT | -0.842 |
| CCTCGTT | 0.722 |
| AGAGGTT | -0.21 |

Other studies, line by line
Parent: PafA, mature enzyme, eGFP fusion (Elizabethkingia meningoseptica, UniProt Q9KJX5); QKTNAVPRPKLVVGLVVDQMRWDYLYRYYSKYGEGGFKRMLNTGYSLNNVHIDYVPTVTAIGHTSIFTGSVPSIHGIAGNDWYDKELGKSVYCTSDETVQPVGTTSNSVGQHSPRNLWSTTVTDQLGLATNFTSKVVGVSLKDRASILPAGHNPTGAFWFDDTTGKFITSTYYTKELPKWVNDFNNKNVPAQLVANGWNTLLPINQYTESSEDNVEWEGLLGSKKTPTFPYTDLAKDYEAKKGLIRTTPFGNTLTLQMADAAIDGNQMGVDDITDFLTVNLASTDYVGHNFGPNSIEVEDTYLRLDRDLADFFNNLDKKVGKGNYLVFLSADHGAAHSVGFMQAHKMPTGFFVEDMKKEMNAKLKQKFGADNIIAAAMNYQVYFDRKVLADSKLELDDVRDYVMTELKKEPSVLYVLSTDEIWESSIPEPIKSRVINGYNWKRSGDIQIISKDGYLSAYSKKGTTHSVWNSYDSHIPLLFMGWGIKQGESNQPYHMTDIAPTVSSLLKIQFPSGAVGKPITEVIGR
| Variant | target | assay | system | conditions | scale | endpoint | result |
| --- | --- | --- | --- | --- | --- | --- | --- |
| A261V | tungstate, free oxyanion | microfluidic competitive inhibition | in vitro, cell-free expressed | not given, derived from inhibition constants, unchanged parent 2230 nM | lower = stronger binding | oxyanion analog dissociation constant | 2.36 µM |
